# Results of several laboratories.
# “And” joins repeats or separate records; there may be more than shown. Numbers after ± are the reported error.
SMILES,organism,test,test system,setting,scale,quantity,value
Cn1c(=O)c(-c2ccccc2Cl)cc2cnc(Nc3cccc(S(C)(=O)=O)c3)nc21,Cryptosporidium parvum,"parasite growth, high-content imaging","HCT-8, BGF",48 h,,EC50,0.07 ± 0.01 µM
Cc1cc(C(=O)Nc2nc3cccc(C)c3n2[C@H]2CCCCN(C(=O)/C=C/CN(C)C)C2)ccn1,Trypanosoma brucei gambiense,"growth inhibition, CellTiter-Glo",STIB930,48 h,,EC50,0.041 µM and 0.073 µM and 0.088 µM and 0.029 µM
CC1CCC(C(C)C)C(OC(=O)Cn2c(-c3ccc(Br)cc3)[n+](C)c3ccccc32)C1.[Cl-] (stereo not shown),Trypanosoma cruzi,"reporter mRNA translation, inhibitor, refers to: capped polyadenylated Renilla luciferase mRNA",cell-free extract,concentration not given,relative to: control RNA,relative translation,81.1%
CC1=CC(Oc2c(F)cc3c(C)cc(=O)oc3c2F)OC1=O (racemic),Phelipanche ramosa,"seed germination, stimulant",seeds,,,EC50,0.046 µM
CCc1c(C(=O)Nc2cc(S(=O)(=O)N(CC)CC)ccc2O)[nH]c(C)c1C(C)=O,Cryptosporidium parvum,"parasite growth, qRT-PCR",HCT-8,44 h,,EC50,2.75 µM
CC1(F)CN(C(=O)Cn2c(=O)c(C(=O)NCc3ccc(Cl)cc3)cc3nc(N4CCN(CCN)C4=O)cnc32)C1,human cytomegalovirus,viral cytopathic effect,"MRC-5, Davis",168 h,,EC50,0.2 µM
CSc1ccc(CN2CCCC(CNC(=O)c3ccc(F)cc3)C2)cc1 (stereo not shown),Trypanosoma cruzi,"reporter mRNA translation, inhibitor, refers to: capped polyadenylated Renilla luciferase mRNA",cell-free extract,concentration not given,relative to: control RNA,relative translation,104%
CC1=C[C@@H](O/C=C2/C(=O)O[C@H]3c4ccccc4C[C@@H]23)OC1=O,Arabidopsis thaliana,seed germination,Col-0,,,EC50,0.16 µM
Cc1ccc(C(NC(=O)c2cc(-c3ccccc3)n(-c3ccccc3)n2)c2ccncc2)cc1 (stereo not shown),dengue virus 2,"viral replication, immunofluorescence","Vero, New Guinea C",,,EC50,6.7 µM
CC1=C(C)[C@@H](Oc2c(F)cc3c(C)cc(=O)oc3c2F)OC1=O,Phelipanche ramosa,"seed germination, stimulant",seeds,,,EC50,0.007 µM
NC(=O)c1cccc(NC(=O)c2cc(-c3ccc(Br)cc3)n(-c3ccccc3)n2)c1,dengue virus 2,"viral replication, immunofluorescence","Vero, New Guinea C",,,EC50,8.4 µM
O=C1/C(=C/c2ccc(O)c(Br)c2)CCC/C1=C\c1ccc(O)c(Br)c1,Cryptosporidium parvum,"parasite growth, qRT-PCR",HCT-8,44 h,,EC50,8.6 µM
Cc1ccc2c(c1)nc(NC(=O)c1cccc(C(F)(F)F)c1)n2[C@H]1CC[C@H](N)CC1,Trypanosoma cruzi,intracellular amastigote growth,Tulahuen,,,EC50,1.32 µM and 1.22 µM

# For quick reference, copied from above:
SMILES,organism,test,test system,setting,scale,quantity,value
CC1(F)CN(C(=O)Cn2c(=O)c(C(=O)NCc3ccc(Cl)cc3)cc3nc(N4CCN(CCN)C4=O)cnc32)C1,human cytomegalovirus,viral cytopathic effect,"MRC-5, Davis",168 h,,EC50,0.2 µM
